{"data": "Measurements from different studies", "organism": "Staphylococcus epidermidis", "note": "Protocols differ between the studies behind these lines. Numbers after ± are the reported error."}
{"Structure (SMILES)": "CN[C@H](CC(C)C)C(=O)N[C@H]1C(=O)N[C@@H](CC(N)=O)C(=O)N[C@H]2C(=O)N[C@H]3C(=O)N[C@H](C(=O)N[C@H](C(=O)O)c4cc(O)cc(O)c4-c4cc3ccc4O)[C@H](O)c3ccc(c(Cl)c3)Oc3cc2cc(c3O[C@@H]2O[C@H](CO)[C@@H](O)[C@H](O)[C@H]2O[C@H]2C[C@](C)(N)[C@H](O)[C@H](C)O2)Oc2ccc(cc2Cl)[C@H]1O", "test": "E-test, classical method", "system": "Mueller-Hinton agar", "setting": "24 h", "MIC [µg/mL]": 2}
{"Structure (SMILES)": "CCc1cc(=O)c2c(OCC(O)CNC(C)(C)C)c3ccoc3c(OC)c2o1 (stereo not drawn)", "test": "broth microdilution", "system": "ATCC 12228", "setting": "19 h, 35 °C", "MIC [µg/mL]": "> 256"}
{"Structure (SMILES)": "CCCCCCCCCC(=O)N[C@@H](CCCCN)CN1CC(=O)N(c2ccc(N3CN(C[C@H](CCCCN)NC(=O)CCCCCCCCC)CC3=O)cc2)C1", "test": "microbial growth", "system": "MRSE", "setting": "drug-resistant strain", "MIC [µg/mL]": "< 6"}
{"Structure (SMILES)": "Cc1ccc(C(C)C)cc1.Cc1ccc(C(C)C)cc1.[Cl][Ru][Cl].[Cl][Ru][Cl]", "test": "broth microdilution", "system": "ATCC 12228", "setting": "37 °C", "MIC [µg/mL]": "> 1000"}
{"Structure (SMILES)": "CC[C@H](C)[C@H](NC(=O)[C@H](Cc1c[nH]cn1)NC(=O)[C@H](Cc1c[nH]cn1)NC(=O)[C@H](Cc1ccccc1)NC(=O)[C@@H](N)Cc1ccccc1)C(=O)N[C@@H](Cc1ccccc1)C(=O)N[C@@H](CCCNC(=N)N)C(=O)NCC(=O)N[C@@H](CCCCN)C(=O)N[C@H](C(=O)N[C@@H](Cc1c[nH]cn1)C(=O)N[C@H](C(=O)NCC(=O)N[C@@H](CCCCN)C(=O)N[C@H](C(=O)N[C@H](C(=O)N[C@@H](Cc1c[nH]cn1)C(=O)N[C@@H](CCCNC(=N)N)C(=O)N[C@@H](CC(C)C)C(=O)N[C@H](C(=O)N[C@H](C(=O)NCC(N)=O)[C@@H](C)O)C(C)C)[C@@H](C)CC)[C@@H](C)O)C(C)C)C(C)C", "test": "broth microdilution", "system": "ATCC 1435", "setting": "18 h, 37 °C", "MIC [µg/mL]": 3.1}
{"Structure (SMILES)": "CCc1cc(=O)c2c(O)c3ccoc3c(OC)c2o1", "test": "broth microdilution", "system": "ATCC 12228", "setting": "19 h, 35 °C", "MIC [µg/mL]": 64}
{"Structure (SMILES)": "Cc1cc(C)n(C(N)=S)n1.Cc1ccc(C(C)C)cc1.[Cl][Ru][Cl]", "test": "broth microdilution", "system": "ATCC 12228", "setting": "37 °C", "MIC [µg/mL]": 62.5}
{"Structure (SMILES)": "CCOC(=O)c1c(N)csc1-c1cn(-c2ccccc2)nc1-c1ccc(C)cc1", "test": "broth microdilution", "system": "clinical urinary isolate", "setting": "compound gamma-irradiated 10 kGy", "MIC [µg/mL]": "0.124 ± 0.5"}
{"Structure (SMILES)": "CCc1cc(=O)c2c(OCC(O)CN3CCOCC3)c3ccoc3c(OC)c2o1 (stereo not drawn)", "test": "broth microdilution", "system": "ATCC 12228", "setting": "19 h, 35 °C", "MIC [µg/mL]": "> 256"}
{"note": "For quick reference, copied from above:"}
{"Structure (SMILES)": "CCc1cc(=O)c2c(O)c3ccoc3c(OC)c2o1", "test": "broth microdilution", "system": "ATCC 12228", "setting": "19 h, 35 °C", "MIC [µg/mL]": 64}
